# Assay results pooled from the literature.
# Parts stem from different laboratories: compare values within a part only. Changes are numbered by the printed parent chain.

# Series 1 — method: RNA Bind-n-Seq; form: RNA; matrix: in vitro; concentration: 365 nM; baseline: no-protein control; reading: higher = stronger binding
# Target: RNA binding protein fox-1 homolog 2, RRM domain, GST-SBP tag (RBFOX2, Homo sapiens, UniProt O43251-10, residues 100-194)
# Notes: natural RNA segment, single round, ends assumed
# Constant ends, left off below: GGGAGUUCUACAGUCCGACGAUC … UGGAAUUCUCGGGUGCCAA
# Target sequence (chain): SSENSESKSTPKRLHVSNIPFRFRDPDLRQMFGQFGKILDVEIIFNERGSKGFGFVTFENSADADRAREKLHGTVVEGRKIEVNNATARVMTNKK
Sequence,RBNS enrichment (R)
AAAUACUAAACGCCAAGAGUUGAGCCUGUGGGUCUCUCCAUAAGAGUUUUAAAACUCUUGCCAGUUACCACUUUAUCCAAUUUGCUAUCAUUUUCGUAUUAUCAGCUAUC,0.616
AUGGGUAGCUGGCUCACAUCCCCAGCCAAGCCUCGAACUGUUGACAAGACCAGGGAGAAUCCACCCAUGGGCGCCCACCAGGUUCUUAUGGAUGCAAGCAGGAGAAGCUC,0.818
UGUCUGUUAAAUGAAUGUCAUAUGUAAAUGCUAAAAUAAAUCGACAGUGUCUCAGAACUGAAUAACUGCAGUGACUUGAUGCUCUAAAACAGUGUAGGAUUUAAGAAUAG,0.559
GUGCUAUAGGUGACCAUCUGGUACAUUGAGGGGACCUGUUUGCCUCCUCCACUCUAUAAGCAGUCAUCUUGGGAGACCGGGAGGAGAAGGUGGUGGGCUAGUCCUGUGUC,0.576
GAAGGUGUUAUGCGGCUGCUCCCUCCGUCCCAGAGGUGGCAGUGAUUCCAUAAUGUGGAGACUAGUAACUAGAUCCUAAGGCAAAGAGGUGUUUCUCCUUCUGGAUGAUU,0.449
UGAAAUUUUUCCACACUAUGUGUGUUGUUUCCAUAGCUGUUCACUUCCUCCAGAAGCCUCCUUACAUUAAAAAGCCUUACAGUUAUCCUGCAAGGGACAGGAAGGUCUGA,0.218
GCAUACUGUGUAAAUAUGGACCUUUUCAGAUUAAAACGUUAAUGGAAAUGCUUUUAACUCAAACAGCAACAUCUUAGCUAUUUGUUAGUUCUCUUUUGUUGUCUUAUCAA,0.522
AGUGUUCUCAUGAAGCAGGAGGCCCUUGUCGUGGGAUGGCAUUUGGUCUCAGGCAGCACCACACUGGGUGCGUCUCCAGUCAUCUGUAAGAGCUUGCUCCAGAUUCUGAU,0.475
GACUGCGCCCUGAGGACGUGGACGCUGUUAGGAACCAAACUCUGUCCUGAGCUUCCUCUAGCUCACUCUAGAAGUAAUGGUCUAAUCAAAGGUCGUCUGUCUGCUUUUGA,0.262
ACUUUUUCCACGGGGUCCUUUUAUCACAAAAUUAAACAAUUAUGAAACAUUCUGUCCACAAAGACUAUUUUAAGGCAUAUUCAACUGGUAUUUCAUUUAUUCUUAUGGAC,0.596
GGGGCUGGCCCUGCCCUCCCCCACGGCCGUCCCUGACUUCCCAGCUGGCAGCGCCUCCCGCCGCCUCGGGCCGCCUCCUCCAGACUCGAGAGGGCUGAGCCCCUCCUCUC,0.217
AACCUCCAGGCAGGAACCGGCUCGCCACCCUCUGCCCGGUAAGGGCUGCCCAAGAAAGCAUUACCCGCCCUCGGGGGGUCGGGCUGUGGGGGUCCCGGCACCUGGCGUGA,0.344

# Series 2 — method: universal PBM; form: double-stranded DNA, one strand shown; matrix: in vitro; concentration: not given; reading: higher = stronger binding
# Target: Sal-like protein 4, full length isoform B (SALL4, Homo sapiens, UniProt Q9UJQ4-2, residues 1-616)
# Notes: 8-mer, flanks averaged, mean of replicates
Sequence,E-score
GGAAAAAA,0.29
CAAGCGAG,-0.0536
AAATTAGA,0.268
ACATTCCA,0.0717
GCAGATGA,-0.128
ACCCCACA,-0.0458
GGACCGCA,-0.243
ATCGACTC,-0.0381
GGACCTGA,-0.203
CCTACCCG,-0.224
CGCTCGGC,-0.375
TAATGCAA,0.278
AATAAAGT,0.271
AACCCCCC,-0.252
TCCTTCAA,0.139
CGCGTCAC,-0.119
ACTGGTTG,-0.138
ATAACAAA,0.334

# Series 3 — method: DHFR PCA, deep sequencing; matrix: yeast; with: (+)-ABA 4.8 µM; baseline: wild-type fitted maximum; reading: higher = stronger binding
# Target: ABI1, truncated, D143A, DHFR fusion (Arabidopsis thaliana)
# Notes: methotrexate growth selection, single substitutions
# Starting sequence: PYL1, truncated, DHFR fusion (Arabidopsis thaliana); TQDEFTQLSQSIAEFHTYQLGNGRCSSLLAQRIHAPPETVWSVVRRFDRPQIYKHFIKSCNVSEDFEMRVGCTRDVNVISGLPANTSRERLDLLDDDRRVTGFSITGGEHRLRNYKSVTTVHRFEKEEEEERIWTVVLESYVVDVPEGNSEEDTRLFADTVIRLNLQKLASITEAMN; partner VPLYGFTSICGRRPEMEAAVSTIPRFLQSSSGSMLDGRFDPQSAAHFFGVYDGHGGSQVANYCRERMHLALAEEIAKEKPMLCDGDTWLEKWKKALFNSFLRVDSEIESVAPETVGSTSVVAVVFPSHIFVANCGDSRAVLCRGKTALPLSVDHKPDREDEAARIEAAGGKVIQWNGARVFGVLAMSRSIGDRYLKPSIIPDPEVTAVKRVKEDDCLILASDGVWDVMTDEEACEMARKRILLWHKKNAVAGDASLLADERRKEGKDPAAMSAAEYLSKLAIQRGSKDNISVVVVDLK
Variant,relative binding score [%]
Q167R,87.5
D159I,-4.83
S117W,-1.53
T106K,17.3
K116N,12.5
S171T,80.4
S140M,-16.3
R32Y,63
E14Q,57.7
L28M,71.4
P83C,8.73
H16Q,-1.63
S26D,3.23
N177D,72.8
R74P,0.651
N177V,94.5
F5N,43.2
T119P,1.37
R88M,60.9
P36Q,45.4
K116F,-4.46
S59C,55.8
L94G,-10.6
S42E,75.7
R24M,60.8

# Series 4 — method: protein binding microarray; form: double-stranded DNA, one strand shown; matrix: in vitro; concentration: not given; baseline: not given; reading: higher = stronger binding
# Target: Histone acetyltransferase KAT6A, winged helix 1, GST fusion (KAT6A, Homo sapiens, UniProt Q92794, residues 1-85)
# Notes: 8-mer, flanks averaged, mean of 2 arrays, mostly near background
# Residues (chain): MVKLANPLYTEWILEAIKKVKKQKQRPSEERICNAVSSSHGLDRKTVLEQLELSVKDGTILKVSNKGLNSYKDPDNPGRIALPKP
Sequence,E-score
CCAGGAAC,-0.142
CGTTATAC,-0.0421
CAGGATTA,-0.0455
TCTAAGCA,-0.0983
AGCCTGGC,-0.123
AGTGTCCC,0.0585
AGAGCTGG,-0.208
CCTGAATC,-0.169
GTGATGTA,-0.0778
GATTTTGC,-0.109
GACATTCA,-0.12
ACATCCAC,-0.197
TCACTCCA,-0.241
ACCCAGAT,-0.23
CGCTTTAG,0.144
ACACCCTA,-0.214
CGGCGAAA,0.302
AAGGGGAT,-0.145
TTCCTCAA,-0.0775
GCGTTTGA,0.06
ATACTCGC,0.163

# For quick reference, copied from above (series 3):
Variant,relative binding score [%]
P36Q,45.4
K116F,-4.46
S59C,55.8
L94G,-10.6
S42E,75.7
